Published values gathered from unrelated publications.
Compare with care: the assays were run in different laboratories. ± gives the spread as reported.
UniProt P42575, sequence (whole entry, unmodified, looked up): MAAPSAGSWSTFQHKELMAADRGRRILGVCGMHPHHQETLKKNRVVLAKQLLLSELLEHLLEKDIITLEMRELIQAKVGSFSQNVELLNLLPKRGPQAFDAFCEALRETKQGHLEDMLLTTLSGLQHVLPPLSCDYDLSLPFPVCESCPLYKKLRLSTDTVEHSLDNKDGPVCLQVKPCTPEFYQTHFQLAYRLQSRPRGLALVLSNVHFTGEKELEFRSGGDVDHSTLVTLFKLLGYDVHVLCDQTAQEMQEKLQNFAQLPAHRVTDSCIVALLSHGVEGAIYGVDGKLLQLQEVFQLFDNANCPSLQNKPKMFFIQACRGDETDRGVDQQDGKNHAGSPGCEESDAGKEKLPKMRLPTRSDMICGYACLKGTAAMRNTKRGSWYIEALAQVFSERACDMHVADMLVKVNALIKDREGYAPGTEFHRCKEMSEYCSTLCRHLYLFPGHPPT
UniProt Q9Y210, sequence (whole entry, unmodified, looked up): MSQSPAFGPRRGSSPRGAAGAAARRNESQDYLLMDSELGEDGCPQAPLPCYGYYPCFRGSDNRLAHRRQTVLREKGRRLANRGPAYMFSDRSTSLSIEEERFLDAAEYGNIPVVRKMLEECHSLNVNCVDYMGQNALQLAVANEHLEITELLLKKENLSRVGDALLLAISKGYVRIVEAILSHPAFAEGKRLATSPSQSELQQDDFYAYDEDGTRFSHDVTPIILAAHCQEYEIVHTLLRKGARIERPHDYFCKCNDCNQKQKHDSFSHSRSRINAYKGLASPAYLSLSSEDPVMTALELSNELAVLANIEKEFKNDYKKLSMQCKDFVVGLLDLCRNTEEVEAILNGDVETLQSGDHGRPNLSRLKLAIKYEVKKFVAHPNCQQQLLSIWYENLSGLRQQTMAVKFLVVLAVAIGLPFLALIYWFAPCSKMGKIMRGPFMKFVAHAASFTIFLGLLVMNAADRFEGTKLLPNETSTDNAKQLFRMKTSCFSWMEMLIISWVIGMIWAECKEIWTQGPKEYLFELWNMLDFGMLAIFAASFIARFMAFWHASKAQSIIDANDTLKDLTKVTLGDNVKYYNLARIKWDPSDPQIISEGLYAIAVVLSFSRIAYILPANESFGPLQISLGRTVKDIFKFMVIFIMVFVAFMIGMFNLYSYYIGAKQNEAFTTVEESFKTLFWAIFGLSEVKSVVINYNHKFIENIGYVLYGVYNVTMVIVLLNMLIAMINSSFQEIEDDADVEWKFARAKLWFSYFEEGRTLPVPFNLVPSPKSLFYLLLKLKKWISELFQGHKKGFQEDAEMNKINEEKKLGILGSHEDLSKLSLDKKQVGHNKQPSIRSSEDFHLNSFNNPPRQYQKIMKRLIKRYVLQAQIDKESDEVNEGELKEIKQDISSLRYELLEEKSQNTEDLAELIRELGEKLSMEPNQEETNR
UniProt P21397, sequence (whole entry, looked up): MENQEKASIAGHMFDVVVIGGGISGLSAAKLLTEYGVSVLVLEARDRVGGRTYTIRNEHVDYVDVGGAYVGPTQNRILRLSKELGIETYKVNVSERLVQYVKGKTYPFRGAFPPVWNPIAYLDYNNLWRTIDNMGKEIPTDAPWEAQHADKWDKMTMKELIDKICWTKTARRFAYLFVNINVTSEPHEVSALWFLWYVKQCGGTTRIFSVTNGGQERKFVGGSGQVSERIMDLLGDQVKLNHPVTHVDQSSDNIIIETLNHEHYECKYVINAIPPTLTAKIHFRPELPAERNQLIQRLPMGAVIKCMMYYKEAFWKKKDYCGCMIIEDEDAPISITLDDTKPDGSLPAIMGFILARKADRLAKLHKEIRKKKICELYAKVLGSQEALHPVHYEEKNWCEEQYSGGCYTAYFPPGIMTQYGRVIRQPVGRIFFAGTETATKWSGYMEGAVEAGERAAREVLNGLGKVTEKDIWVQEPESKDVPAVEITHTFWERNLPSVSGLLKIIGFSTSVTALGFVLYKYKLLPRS
UniProt P22736, sequence (whole entry, looked up): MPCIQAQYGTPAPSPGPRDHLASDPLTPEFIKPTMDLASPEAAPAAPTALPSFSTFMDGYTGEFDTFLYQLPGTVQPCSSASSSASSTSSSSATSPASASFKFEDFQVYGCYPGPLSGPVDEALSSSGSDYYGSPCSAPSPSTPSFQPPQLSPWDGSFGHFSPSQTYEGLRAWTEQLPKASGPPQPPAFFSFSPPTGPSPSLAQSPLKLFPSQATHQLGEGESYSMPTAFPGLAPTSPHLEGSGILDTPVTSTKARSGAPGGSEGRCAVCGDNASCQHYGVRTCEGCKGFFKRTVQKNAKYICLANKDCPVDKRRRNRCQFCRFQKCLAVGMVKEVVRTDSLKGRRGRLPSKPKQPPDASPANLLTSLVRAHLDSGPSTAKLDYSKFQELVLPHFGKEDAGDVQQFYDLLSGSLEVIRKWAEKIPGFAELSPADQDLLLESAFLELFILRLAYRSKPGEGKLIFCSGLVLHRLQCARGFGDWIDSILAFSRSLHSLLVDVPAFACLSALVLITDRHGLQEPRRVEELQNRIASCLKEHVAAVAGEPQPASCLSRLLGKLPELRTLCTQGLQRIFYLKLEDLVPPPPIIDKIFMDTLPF

`CC[C@H](C)[C@H](NC(=O)[C@H](C)NC(=O)CNC(=O)[C@H](Cc1ccccc1)NC(=O)[C@H](CC(N)=O)NC(=O)[C@H](CC(N)=O)NC(=O)[C@H](CO)NC(=O)[C@H](CO)NC(=O)[C@H](Cc1c[nH]cn1)NC(=O)[C@@H](NC(=O)[C@H](CC(C)C)NC(=O)[C@H](Cc1ccccc1)NC(=O)[C@H](CC(N)=O)NC(=O)[C@H](C)NC(=O)[C@H](CC(C)C)NC(=O)[C@H](CCCNC(=N)N)NC(=O)[C@H](CCC(N)=O)NC(=O)[C@@H](NC(=O)[C@H](C)NC(=O)[C@@H]1CSSC[C@H](NC(=O)[C@@H](N)CCCCN)C(=O)N[C@@H](CC(N)=O)C(=O)N[C@@H]([C@@H](C)O)C(=O)N[C@@H](C)C(=O)N[C@@H]([C@@H](C)O)C(=O)N1)[C@@H](C)O)C(C)C)C(=O)N[C@@H](CC(C)C)C(=O)N[C@@H](CO)C(=O)N[C@@H](CO)C(=O)N[C@H](C(=O)N[C@@H](CC(N)=O)C(=O)N[C@H](C(=O)NCC(=O)N[C@@H](CO)C(=O)N[C@@H](CC(N)=O)C(=O)N[C@H](C(=O)N[C@@H](Cc1ccc(O)cc1)C(N)=O)[C@@H](C)O)C(C)C)[C@@H](C)O` has a viability of 9 ± 9% (INS-1; AlamarBlue; 42 µM, 48 h; relative to: medium alone).
`CC1(C)CCCC(C)(C2CCC3(C)C2C(O)CC2C4(C)CCC(O)C(C)(C)C4C(OC(=O)/C=C\c4ccc(Cl)cc4)CC23C)O1` (stereo not drawn) gave an IC50 of > 30 µM (Hep3B; cell growth or viability, MTT; 24 h).
The Ki of `COc1ccc(CCCN[C@@H]2CCC[C@H]2CN[C@H]2CCC[C@@H]2CNCCCCN[C@H]2CCC[C@@H]2CN)cc1` is reported as 190 ± 32 µM (Amine oxidase [flavin-containing] A (MAOA, Homo sapiens, UniProt P21397); enzyme activity, inhibitor; together with: tyramine 50 µM).
With `CN(C)C(=O)C1CN1S(=O)(=O)c1cccc2c(N(C)C)cccc12` (stereo not drawn) the IC50 was 13 ± 1 µM (Balb/c 3T3 fibroblasts; cytotoxicity, neutral red uptake; DMEM with 5% FBS; 24 h).
With `COc1cc(CN2CCN(c3cccc(Cl)c3)CC2)c2cc3[n+](cc2c1O)CCc1cc2c(cc1-3)OCO2` the CC50 was 145 µg/mL (MDCK; cell growth or viability, SRB; 48 h).
With `CCCN(CC(=O)N(CCC)CC(=O)N(CCC)CC(=O)N(CCC)CC(=O)N(CC(=O)N(CCC)CC(=O)N(CCC)CC(=O)N(CCC)CC(=O)N(CCC)CC(=O)N(CC(N)=O)Cc1cn(CCCNC(=O)CCCOc2cccc(-c3nc4ccc(-c5nc6ccc(N7CCN(C)CC7)cc6[nH]5)cc4[nH]3)c2)nn1)Cc1cn(CCCNC(=O)CCCOc2cccc(-c3nc4ccc(-c5nc6ccc(N7CCN(C)CC7)cc6[nH]5)cc4[nH]3)c2)nn1)C(=O)CNCc1cn(CCCNC(=O)CCCOc2cccc(-c3nc4ccc(-c5nc6ccc(N7CCN(C)CC7)cc6[nH]5)cc4[nH]3)c2)nn1` the non-fluorescent cells was 24% (C2C12; flow cytometry; 5 µM, 48 h).
The Papp B-to-A of `COC(=O)NC(C(=O)NN(Cc1ccc(Br)cc1)CC(O)(Cc1ccccc1)C(=O)NCc1ccccc1)C(C)(C)C` (stereo not drawn) is reported as 26.3 ± 0.2 ×10⁻⁶ cm/s (Caco-2; pH 7.4, 1% BSA in receiver).
`CC(C)Oc1ncnc2c1c(Cl)cn2[C@@H]1O[C@H](CO)[C@@H](O)[C@H]1O` has an EC50 of > 64 µM (MRC-5 SV2; cytotoxicity, resazurin; medium with 5% FBS; 72 h).
For `CC(=O)N[C@@H](CC(=O)O)C(=O)N[C@H](C(=O)N[C@@H](CCN)C(=O)N[C@H](C=O)CC(=O)O)C(C)C`, the Ki was 11.7 µM (Caspase-2, circularly permuted (Homo sapiens, UniProt P42575); enzyme activity, inhibitor; pH 6.5, 37 °C, together with: Z-VDVAD-AFC).
The EC50 of `O=C(c1cc2c(s1)CCCCC2)N1CCC(n2c(=O)[nH]c3ccccc32)CC1` is reported as 4.47 ± 0.37 µM (Short transient receptor potential channel 6 (TRPC6, Homo sapiens, UniProt Q9Y210, E672C); channel activation, agonist, whole-cell patch clamp).
For `CCCN(CC(=O)N(CCC)CC(=O)N(CCC)CC(=O)N(CCC)CC(=O)N(CC(=O)N(CCC)CC(=O)N(CCC)CC(=O)N(CCC)CC(=O)N(CCC)CC(=O)N(CC(=O)N(CCC)CC(=O)N(CCC)CC(=O)N(CCC)CC(=O)N(CCC)CC(=O)N(CC(N)=O)Cc1cn(CCCNC(=O)CCCOc2cccc(-c3nc4ccc(-c5nc6ccc(N7CCN(C)CC7)cc6[nH]5)cc4[nH]3)c2)nn1)Cc1cn(CCCNC(=O)CCCOc2cccc(-c3nc4ccc(-c5nc6ccc(N7CCN(C)CC7)cc6[nH]5)cc4[nH]3)c2)nn1)Cc1cn(CCCNC(=O)CCCOc2cccc(-c3nc4ccc(-c5nc6ccc(N7CCN(C)CC7)cc6[nH]5)cc4[nH]3)c2)nn1)C(=O)CNCc1cn(CCCNC(=O)CCCOc2cccc(-c3nc4ccc(-c5nc6ccc(N7CCN(C)CC7)cc6[nH]5)cc4[nH]3)c2)nn1`, the non-fluorescent cells was 8.9% (C2C12; flow cytometry; 5 µM, 48 h).
For `CC(C)=CCc1c(O)c(CC=C(C)C)c2occ(-c3ccc(O)c(O)c3)c(=O)c2c1O`, the viability was 90.3% (RAW264.7; cell growth or viability, MTT; 12.5 µg/mL, 24 h).
For `CC[C@H](C)[C@H](NC(C)=O)C(=O)N[C@H](C(=O)N[C@H](C(=O)N[C@@H](CCCCN)C(=O)N[C@H](C=O)CC(=O)O)C(C)C)[C@@H](C)O`, the Ki was 0.398 µM (Caspase-2 (Homo sapiens, UniProt P42575); enzyme activity, inhibitor, fluorescence; pH 6.5).
The IC50 of `CCCCCCc1ccc(S(=O)(=O)N2CC2C(=O)N(CC)CC)cc1` (stereo not drawn) is reported as 7.1 ± 1.4 µM (Balb/c 3T3 fibroblasts; cytotoxicity, neutral red uptake; DMEM with 5% FBS; 24 h).
The growth percent of `COc1cc(CNC(=O)C[C@H](C)CCC=C(C)C)ccc1OCc1cn(-c2ccccc2[N+](=O)[O-])nn1` is reported as 58.8% (EKVX; SRB; 10 µM, 48 h).
Under cytotoxicity, `CNC(=S)Nc1cccc([N+](=O)[O-])c1` is recorded as “not toxic” (MDCK; at solubility limit).
`COc1ccc([C@@H]2CC(=O)c3c(O)cc(O[C@@H]4O[C@H](CO[C@@H]5O[C@@H](C)[C@H](O)[C@@H](O)[C@H]5O)[C@@H](O[C@H]5O[C@H](CO)[C@@H](O)[C@H](O)[C@H]5O)[C@H](O)[C@H]4O)cc3O2)cc1O` gave a viability of 75.6% (MRC5; cell growth or viability, MTS; 50 µg/mL, 24 h).
`CC1=C(O)C(=O)C=C2C1=CC=C1[C@@]2(C)CC[C@@]2(C)[C@@H]3C[C@](C)(C(=O)NCCOCCOCCOCCOCC(=O)N[C@H](C(=O)N4C[C@H](O)C[C@H]4C(=O)N[C@@H](C)c4ccc(-c5scnc5C)cc4)C(C)(C)C)CC[C@]3(C)CC[C@]12C` gave a DC50 of 0.229 µM (Nuclear receptor subfamily 4 group A member 1 (NR4A1, Homo sapiens, UniProt P22736); degrader, immunoblotting; CHL-1; 16 h).

A few entries again:
The growth percent of `COc1cc(CNC(=O)C[C@H](C)CCC=C(C)C)ccc1OCc1cn(-c2ccccc2[N+](=O)[O-])nn1` is reported as 58.8% (EKVX; SRB; 10 µM, 48 h).
Under cytotoxicity, `CNC(=S)Nc1cccc([N+](=O)[O-])c1` is recorded as “not toxic” (MDCK; at solubility limit).
`COc1ccc([C@@H]2CC(=O)c3c(O)cc(O[C@@H]4O[C@H](CO[C@@H]5O[C@@H](C)[C@H](O)[C@@H](O)[C@H]5O)[C@@H](O[C@H]5O[C@H](CO)[C@@H](O)[C@H](O)[C@H]5O)[C@H](O)[C@H]4O)cc3O2)cc1O` gave a viability of 75.6% (MRC5; cell growth or viability, MTS; 50 µg/mL, 24 h).
